Published values of several laboratories.
Every numbered part comes from another study and shows a few of its results, in no order.

Sample 1
Cell line: HEK-293T
Effect on: pseudovirus infection
Technique: FDA-approved drug library screen
Organism: VSV pseudotyped with SARS-CoV-2 spike
Concentration: 10 µM
Time: 16 h
Relative to: vehicle-treated
| Structure (SMILES) | GFP-positive cells [%] |
| --- | --- |
| CCn1cc(C(=O)O)c(=O)c2cc(F)c(N3CCNCC3)cc21 | 63.3 |
| CC(NCCc1ccc(O)cc1)C(O)c1ccc(O)cc1 (centres unmarked) | 90.9 |
| CCCN(CCC)S(=O)(=O)c1ccc(C(=O)O)cc1 | 93.2 |

Sample 2
Target: Replicase polyprotein 1ab, nsp13 helicase (rep, Severe acute respiratory syndrome coronavirus 2, UniProt P0DTD1)
Action: inhibitor
Concentration: 20 µM
| Structure (SMILES) | inhibition [%] |
| --- | --- |
| CNCc1ccc(-c2[nH]c3cc(F)cc4c3c2CCNC4=O)cc1 | 12.8 |
| Cc1ccc([C@@H]2O[C@H](CO)[C@@H](O)[C@H](O)[C@H]2O)cc1Cc1ccc(-c2ccc(F)cc2)s1 | 9.11 |
| O=C(c1ccc(Cl)o1)N1C[C@H]2CNC[C@H]2C1 | 4.04 |
| CCOC(=O)[C@@]1(CCCCCCOc2ccc(Cl)cc2)CO1 | 3.82 |
| CC[C@H]1OC(=O)[C@H](C)[C@@H](O[C@H]2C[C@@](C)(OC)[C@@H](O)[C@H](C)O2)[C@H](C)[C@@H](O[C@@H]2O[C@H](C)C[C@H](N(C)C)[C@H]2O)[C@](C)(O)C[C@@H](C)CN(C)[C@H](C)[C@@H](O)[C@]1(C)O | -1.46 |
| CC(C)(O)c1ccn2c(-c3ccc(F)c(-c4ccc(F)cc4C#N)c3)cnc2c1F | 10.6 |
| CC(C)(C)C(O)/C=C/c1ccc2c(c1)OCO2 (centres unmarked) | 8.09 |

Sample 3
Target: Replicase polyprotein 1ab, main protease (rep, Severe acute respiratory syndrome coronavirus 2, UniProt P0DTD1)
Effect on: enzyme activity
Action: inhibitor
Setting: with DTT
| SMILES | IC50 |
| --- | --- |
| C=C1C(=O)O[C@H]2[C@H]1CC/C(C)=C/CC[C@@]1(C)O[C@@H]21 | > 20000 nM |
| O=C(O)[C@@H](S)[C@@H](S)C(=O)O | 80 nM |
| Cn1sc(=O)n(Cc2ccccc2)c1=O | 140 nM |

Other studies, line by line
| Structure (SMILES) | host | dose | setting | measurement | result |
| --- | --- | --- | --- | --- | --- |
| CC[C@H](C)[C@H](NC(=O)[C@H](CC(C)C)NC(=O)[C@H](Cc1c[nH]c2ccccc12)NC(=O)[C@H](CCC(N)=O)NC(=O)[C@@H](NC(=O)[C@H](Cc1ccccc1)NC(=O)[C@H](C)NC(=O)[C@H](CCCCNC(=O)COCCOCCNC(=O)COCCOCCNC(=O)CC[C@H](NC(=O)CCCCCCCCCCCCCCCCCCC(=O)O)C(=O)O)NC(=O)[C@H](CCC(N)=O)NC(=O)[C@H](C)NC(=O)[C@@H](NC(=O)[C@H](CCCCN)NC(=O)[C@H](CC(=O)O)NC(=O)[C@H](CC(C)C)NC(=O)C(C)(C)NC(=O)[C@@H](NC(=O)[C@H](CO)NC(=O)[C@H](Cc1ccc(O)cc1)NC(=O)[C@H](CC(=O)O)NC(=O)[C@H](CO)NC(=O)[C@@H](NC(=O)[C@H](Cc1ccccc1)NC(=O)[C@@H](NC(=O)CNC(=O)[C@H](CCC(=O)O)NC(=O)C(C)(C)NC(=O)[C@@H](N)Cc1ccc(O)cc1)[C@@H](C)O)[C@@H](C)O)[C@@H](C)CC)[C@@H](C)CC)C(C)C)C(=O)N[C@@H](C)C(=O)NCC(=O)NCC(=O)N1CCC[C@H]1C(=O)N[C@@H](CO)C(=O)N[C@@H](CO)C(=O)NCC(=O)N[C@@H](C)C(=O)N1CCC[C@H]1C(=O)N1CCC[C@H]1C(=O)N1CCC[C@H]1C(=O)N[C@@H](CO)C(N)=O | healthy human | 8.0 mg | single ascending dose | abdominal distension | 28.6% |

Excerpt of the above (sample 2):
| Structure (SMILES) | inhibition [%] |
| --- | --- |
| CC(C)(O)c1ccn2c(-c3ccc(F)c(-c4ccc(F)cc4C#N)c3)cnc2c1F | 10.6 |
| CCOC(=O)[C@@]1(CCCCCCOc2ccc(Cl)cc2)CO1 | 3.82 |
